Experimental data of several laboratories.
Every numbered part comes from another study and shows a few of its results, in no order.

Block 1 — technique: universal PBM; molecule type: double-stranded DNA, one strand shown; matrix: in vitro; concentration: 600 nM; direction: higher = stronger binding
Target: Sal-like protein 4, full length isoform A (SALL4, Homo sapiens, UniProt Q9UJQ4, residues 1-1053)
Chain of UniProt Q9UJQ4 (whole entry, looked up): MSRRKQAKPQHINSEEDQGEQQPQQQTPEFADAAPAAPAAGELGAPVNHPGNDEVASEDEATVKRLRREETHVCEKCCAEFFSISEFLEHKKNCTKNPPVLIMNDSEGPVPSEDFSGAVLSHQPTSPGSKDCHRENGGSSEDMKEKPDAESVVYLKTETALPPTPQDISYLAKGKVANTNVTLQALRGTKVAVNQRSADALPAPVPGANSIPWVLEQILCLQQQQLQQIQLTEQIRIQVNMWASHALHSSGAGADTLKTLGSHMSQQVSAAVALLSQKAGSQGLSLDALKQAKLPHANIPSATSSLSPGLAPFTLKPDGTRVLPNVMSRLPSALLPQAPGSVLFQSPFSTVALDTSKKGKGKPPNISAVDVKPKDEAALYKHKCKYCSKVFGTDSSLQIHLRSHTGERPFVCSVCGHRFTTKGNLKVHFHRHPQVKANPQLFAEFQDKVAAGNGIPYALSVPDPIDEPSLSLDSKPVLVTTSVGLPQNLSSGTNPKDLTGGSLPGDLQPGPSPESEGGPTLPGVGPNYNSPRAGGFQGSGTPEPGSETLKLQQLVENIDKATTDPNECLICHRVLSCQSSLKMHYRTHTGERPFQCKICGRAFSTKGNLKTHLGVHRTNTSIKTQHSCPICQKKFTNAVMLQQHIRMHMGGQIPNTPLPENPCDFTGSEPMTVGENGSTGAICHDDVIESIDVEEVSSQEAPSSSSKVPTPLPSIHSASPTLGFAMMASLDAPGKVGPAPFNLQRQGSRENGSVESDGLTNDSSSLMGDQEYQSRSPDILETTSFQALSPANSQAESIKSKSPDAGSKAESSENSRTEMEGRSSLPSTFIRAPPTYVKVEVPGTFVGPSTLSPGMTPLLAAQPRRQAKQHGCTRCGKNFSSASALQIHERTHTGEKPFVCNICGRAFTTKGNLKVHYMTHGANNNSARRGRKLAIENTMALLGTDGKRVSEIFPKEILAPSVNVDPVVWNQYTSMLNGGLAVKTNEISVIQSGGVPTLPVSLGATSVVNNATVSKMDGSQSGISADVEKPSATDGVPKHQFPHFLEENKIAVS
Setting: 8-mer, flanks averaged, mean of replicates
Oligonucleotide	E-score
GACATGCC	-0.0825
AGACAACT	0.107
CTGATAAG	0.0712
GCTGAAAA	0.0829
AACTGCCT	0.0644
ATCAACTG	-0.00545
ACCTGGTG	-0.127
AAGAGACG	-0.0255
ACACGGCA	-0.189
GACCGCGA	-0.344
CCACAACG	-0.174
CTGGTGGA	-0.216
GGGACGTA	-0.0797
CCCCGTAC	-0.35
GGTCGCCA	-0.28
TCTGGCCA	-0.0186
CGCTGTTA	-0.0208
CAGTACTC	0.0283
CGGGAGCA	-0.286
AGGATGCC	-0.177
TAGTGATA	0.176
CGTAGGTA	-0.126

Block 2 — technique: protein-binding microarray; molecule type: double-stranded DNA, one strand shown; matrix: in vitro; concentration: 2200 nM top; setting: 60-bp whole probe; added: salmon DNA 0.4 mg/ml; relative to: random background probes; direction: higher = stronger binding; constant ends, left off below: GCCTAGCAC … GTCTTGATTCGCTTGACGCTGCTG
Target: Interferon regulatory factor 7, full length, phosphomimetic (IRF7, Homo sapiens, UniProt Q92985, residues 1-503, S471D/S472D/S475D/S476D/S477D/S483D/S484D/S487D)
Chain of UniProt Q92985 (whole entry, unmodified, looked up): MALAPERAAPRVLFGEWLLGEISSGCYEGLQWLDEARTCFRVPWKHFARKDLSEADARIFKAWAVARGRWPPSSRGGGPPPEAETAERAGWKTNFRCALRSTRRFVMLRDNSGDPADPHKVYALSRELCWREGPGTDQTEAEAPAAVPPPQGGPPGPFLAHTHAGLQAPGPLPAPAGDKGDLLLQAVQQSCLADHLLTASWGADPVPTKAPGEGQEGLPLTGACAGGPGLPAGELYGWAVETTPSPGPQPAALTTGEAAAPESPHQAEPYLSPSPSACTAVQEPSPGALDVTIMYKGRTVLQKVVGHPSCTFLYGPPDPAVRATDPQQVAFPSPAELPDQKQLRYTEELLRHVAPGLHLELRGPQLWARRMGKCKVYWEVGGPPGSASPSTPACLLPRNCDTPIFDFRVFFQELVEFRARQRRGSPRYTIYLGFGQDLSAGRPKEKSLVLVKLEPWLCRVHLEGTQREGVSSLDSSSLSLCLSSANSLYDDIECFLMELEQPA
Oligonucleotide	fitted relative affinity
TTAGGACTGCTACTACTTTAGTGCTAG	0.131 z-score
TTAGGACTGGACACTGGGTTGGTGCTA	-0.832 z-score
TTAGGTATCCGGTATCGGTTAGTGCTA	0.149 z-score
GACGGTCTCCTTCTCATGACGTGCTAG	0.908 z-score
TTAGATCTCAGTCTCGATAAGTGCTAG	0.113 z-score
GACGAGTTCAGTTCCGAGACGTGCTAG	0.753 z-score
TTATATTTCGGGTATCGATTAGTGCTA	2.65 z-score
ACTTTTTTTAATTGAGAAGCGTGCTAG	0.142 z-score
GACGGACTGGAGACTGGGGACGTGCTA	-0.947 z-score
TCACTTTTCTTTACTGAACTGTGCTAG	3.12 z-score
TTATATTTCAGTCTCGATTAGTGCTAG	1.45 z-score

Block 3 — technique: RNA Bind-n-Seq; molecule type: RNA; matrix: in vitro; concentration: 200 nM; setting: whole 134-nt RNA, ends assumed; added: 150 mM KCl; relative to: input library; direction: higher = stronger binding
Target: Fragile X messenger ribonucleoprotein 1, C-terminal low-complexity region (Fmr1, Mus musculus, UniProt P35922)
Oligonucleotide	log2 enrichment
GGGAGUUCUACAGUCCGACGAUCCUCAAGUCCUGUGCUACACAUCGUAUGUACCGAAUCGGAGGGGAGGGGAGGGGAAAGUAUUAUGUUACGCCGUUCGGAUCUGCACUUCCAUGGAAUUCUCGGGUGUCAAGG	1.05
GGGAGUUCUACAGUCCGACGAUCCCUGUGCUACACAUCGUAUGUACCGAAUCGGGAAAAAAAGGGUUUUUGGGUUUUUUUGGGAAAGUAUUAUGUUACGCCGUUCGGAUCUGCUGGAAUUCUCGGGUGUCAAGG	-0.687
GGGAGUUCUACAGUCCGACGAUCCAAGUCCUGUGCUACACAUCGUAUGUACCGAAUCGGGUUUUUGGGAGGGUUUGGGAAAGUAUUAUGUUACGCCGUUCGGAUCUGCACUUCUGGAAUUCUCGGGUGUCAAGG	0.892
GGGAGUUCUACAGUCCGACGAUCUGCAUUUCCUGAGCUGAAGAAGGACCCAGACAUGGUGAAGGACAUCAUUAAUGAAGAAGAGGUGCAGUUUCUCAAGACUCUCAGCAGAGGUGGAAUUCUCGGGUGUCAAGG	-1.06
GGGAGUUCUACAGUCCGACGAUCUGGCCCUGGUGGCAUGCGGGGAGGAAGAGGUGGCCUCAUGGAUCGUGGUGGUCCCGGUGGAAUAUUCAGAGGUGGCCGUGGUGGAGACAGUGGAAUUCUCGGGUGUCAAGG	0.0438
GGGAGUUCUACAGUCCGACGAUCGUCCUGUGCUACACAUCGUAUGUACCGAAUCGGGUUUUUGGGAAAGGGAAAAAAAGGGAAAGUAUUAUGUUACGCCGUUCGGAUCUGCACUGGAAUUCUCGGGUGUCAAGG	-0.288
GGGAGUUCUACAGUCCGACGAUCCCUGUGCUACACAUCGUAUGUACCGAAUCGGGGCCCCCCCGGCCCCCCCGGCCCCCCCGGGAAAGUAUUAUGUUACGCCGUUCGGAUCUGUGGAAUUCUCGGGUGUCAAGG	-0.426
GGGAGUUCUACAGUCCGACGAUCUAACUUUAGAGGAGGAUCUGAUGGAUAUGGCAGUGAACGUGGAUUUGGGGAUGGCUAUAAUGGGUAUGGAGGAGGACCUGGAGGUGGCAAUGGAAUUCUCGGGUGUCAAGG	0.255
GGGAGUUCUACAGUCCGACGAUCUAACUUUAGAGGAGGAUCCGAUGGAUAUGGCAGUGGACGUGGAUUUGGGGAUGGCUAUAAUGGGUAUGGAGGAGGACCUGGAGGUGGCAAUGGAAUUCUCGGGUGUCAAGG	0.347
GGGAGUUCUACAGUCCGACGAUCAGUCCUGUGCUACACAUCGUAUGUACCGAAUCGGGGAAAAGGGGAAAAGGGAAAAGGGAAAGUAUUAUGUUACGCCGUUCGGAUCUGCACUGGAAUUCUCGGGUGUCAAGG	0.392
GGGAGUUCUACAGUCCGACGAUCCUGUGCUACACAUCGUAUGUACCGAAUCGGUUUUUUUGGGUUUUUUUGGGGUUUUUUUGGGGAAAGUAUUAUGUUACGCCGUUCGGAUCUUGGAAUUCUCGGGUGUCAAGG	-0.22
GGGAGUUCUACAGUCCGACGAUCCCUCAAGUCCUGUGCUACACAUCGUAUGUACCGAAUCGGGGUGGGGUGGGUGGAAAGUAUUAUGUUACGCCGUUCGGAUCUGCACUUCCAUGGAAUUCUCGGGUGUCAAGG	1.3
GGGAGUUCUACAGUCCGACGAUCUCCUGUGCUACACAUCGUAUGUACCGAAUCGGGAAAAAGGGUUUUUGGGAAAAAAAGGGAAAGUAUUAUGUUACGCCGUUCGGAUCUGCAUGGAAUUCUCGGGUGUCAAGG	-0.329
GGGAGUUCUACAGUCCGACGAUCGUCCUGUGCUACACAUCGUAUGUACCGAAUCGGGGCCCCCGGCCCCCGGGGCCCCCGGAAAGUAUUAUGUUACGCCGUUCGGAUCUGCACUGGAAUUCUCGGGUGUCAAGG	-1.03

Other studies, line by line — technique: yeast two-hybrid; matrix: yeast; setting: mostly zero background; relative to: not given; direction: higher = stronger interaction; UBE2M: UBE2M UBC core domain (UniProt P61081); UBE2T: UBE2T UBC core domain (UniProt Q9NPD8)
Chain of UniProt P61081 (whole entry, looked up): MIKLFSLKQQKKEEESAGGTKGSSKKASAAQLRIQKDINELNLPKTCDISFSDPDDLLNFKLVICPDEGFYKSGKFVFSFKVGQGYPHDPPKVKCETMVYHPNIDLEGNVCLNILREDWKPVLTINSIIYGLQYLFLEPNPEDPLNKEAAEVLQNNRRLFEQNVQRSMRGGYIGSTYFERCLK
Chain of UniProt Q9NPD8 (whole entry, looked up): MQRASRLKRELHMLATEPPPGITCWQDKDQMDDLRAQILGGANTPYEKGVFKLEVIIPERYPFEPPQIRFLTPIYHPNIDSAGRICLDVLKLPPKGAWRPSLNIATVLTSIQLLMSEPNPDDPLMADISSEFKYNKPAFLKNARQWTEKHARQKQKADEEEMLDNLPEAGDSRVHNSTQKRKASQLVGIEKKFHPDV
B1: VPS8 RING domain (UniProt Q8N3P4); chain TRGLNPKQDYCSICLQQYKRRQEMADEIIVFSCGHLYHSFCLQNKECTVEFEGQTRWTCYKCSSSNKVGKLSE
B2: RNF103 RING domain (UniProt O00237); chain WPADMLHCTECVVCLENFENGCLLMGLPCGHVFHQNCIVMWLAGGRHCCPVCRWPSYKKKQPY
B3: RNF6 RING domain (UniProt Q9Y252); chain NSIDSELGKICSVCISDYVTGNKLRQLPCMHEFHIHCIDRWLSENCTCPICRQPVLGSNIAN
B4: ARIH2 RING domain (UniProt O95376); chain HVPTSHPPHHCAVCMQFVRKENLLSLACQHQFCRSCWEQHCSVLVKDGVGVGVSCMAQDCPLRTPEDFVF
Sequence	target	lacZ reporter activity
B1 (VPS8 RING domain)	UBE2M	0
B2 (RNF103 RING domain)	UBE2M	0
B3 (RNF6 RING domain)	UBE2T	0
B4 (ARIH2 RING domain)	UBE2T	0

Repeated from above (block 1):
Oligonucleotide	E-score
AACTGCCT	0.0644
ATCAACTG	-0.00545
ACCTGGTG	-0.127
AAGAGACG	-0.0255
ACACGGCA	-0.189
GACCGCGA	-0.344
CCACAACG	-0.174
CTGGTGGA	-0.216
